Measured values collected from several papers.
Every numbered part comes from another study and shows a few of its results, in no order.

Series 1
Target: PABPC1L2, full length, GST fusion (mouse, UniProt A0ABA7IW68)
Technique: RNAcompete
Form: RNA
Sample: in vitro
Concentration: 20 nM
Notes: 7-mer, probes averaged, single round
Relative to: mean of 7-mers
Reading: higher = stronger binding
Construct (chain): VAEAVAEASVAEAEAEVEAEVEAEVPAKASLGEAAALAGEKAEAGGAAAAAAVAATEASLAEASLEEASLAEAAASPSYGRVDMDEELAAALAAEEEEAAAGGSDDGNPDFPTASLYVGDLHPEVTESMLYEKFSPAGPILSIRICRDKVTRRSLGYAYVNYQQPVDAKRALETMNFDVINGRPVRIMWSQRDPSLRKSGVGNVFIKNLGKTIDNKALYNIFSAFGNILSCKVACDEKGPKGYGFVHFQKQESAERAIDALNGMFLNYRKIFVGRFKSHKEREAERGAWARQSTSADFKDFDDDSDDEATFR
Sequence	7-mer Z-score
CUCAAUU	-0.146
GUCAUCA	-0.139
AGAUCCC	-0.362
UAGUCCC	-0.364
GCCUUGA	-0.222
GUUACGA	0.0478
AUUUAGG	0.561
GGCUGGC	0.146

Series 2
Target: Prothrombin, mature alpha-thrombin (F2, Homo sapiens, UniProt P00734)
Technique: aptamer microarray, sandwich
Form: DNA with 2'F-ANA
Sample: in vitro
Concentration: 200 nM
Notes: whole 15-mer aptamer, many near background
With: Cy3 exosite-II aptamer, 400 nM
Reading: higher = stronger binding
Sequence: GGTTGGTGTGGTTGG
Modification	mean fluorescence intensity
2'F-ANA at 1 3 6 7 10 11 12 14 15	154 a.u.
2'F-ANA at 3 4 6 7 9 10 11 13 14 15	147 a.u.
2'F-ANA at 1 3 4 6 7 9 11 13 14 15	60.5 a.u.
2'F-ANA at 2 6 7 8 11 13 14 15	130 a.u.
2'F-ANA at 2 3 5 6 7 8 9 10 11 14	58.8 a.u.
2'F-ANA at 2 5 6 8 9 11 12 13	89.1 a.u.
2'F-ANA at 1 3 4 5 8 11 12 14	50 a.u.
2'F-ANA at 1 2 4 5 6 7 10 15	45.5 a.u.

Further values, each from its own experiment
Substance	target or system	assay	test system	setting	how to read	measurement	result
SRSF3 (Homo sapiens, UniProt P84103)	SRSF6 (Homo sapiens, UniProt Q13247)	cross-linking MS	cell fractions	with: DSSO	–	cross-linked residues	T24 to K165
PhoQ, residues 284 288 289 292 302 303 SSLVEF	PhoP, residues 12 14 15 18 19 VHSCL (Escherichia coli, UniProt P23836)	Sort-seq, measured: YFP reporter	E. coli	PhoQ-PhoP variant library, with: 10 µM Mg2+	relative to: high Mg2+ state, higher = stronger signaling	fold induction	6.73
O=C1NC(=O)C(c2cn(CCCO)c3ncccc23)=C1c1cnccn1	Receptor tyrosine-protein kinase erbB-2 (ERBB2, Homo sapiens, UniProt P04626)	enzyme activity, inhibitor	–	0.5 µM	relative to: control	remaining activity	106%
MYCBP2 (Homo sapiens, UniProt O75592)	HNRNPA2B1 (Homo sapiens, UniProt P22626)	cross-linking MS	cell fractions	with: DSSO	–	cross-linked residues	Y422 to K104

For quick reference, copied from above (series 1):
Sequence	7-mer Z-score
AUUUAGG	0.561
